Measured values gathered from unrelated publications.
A part holds a random share of what one study measured.
UniProt P05771, sequence (whole entry, looked up): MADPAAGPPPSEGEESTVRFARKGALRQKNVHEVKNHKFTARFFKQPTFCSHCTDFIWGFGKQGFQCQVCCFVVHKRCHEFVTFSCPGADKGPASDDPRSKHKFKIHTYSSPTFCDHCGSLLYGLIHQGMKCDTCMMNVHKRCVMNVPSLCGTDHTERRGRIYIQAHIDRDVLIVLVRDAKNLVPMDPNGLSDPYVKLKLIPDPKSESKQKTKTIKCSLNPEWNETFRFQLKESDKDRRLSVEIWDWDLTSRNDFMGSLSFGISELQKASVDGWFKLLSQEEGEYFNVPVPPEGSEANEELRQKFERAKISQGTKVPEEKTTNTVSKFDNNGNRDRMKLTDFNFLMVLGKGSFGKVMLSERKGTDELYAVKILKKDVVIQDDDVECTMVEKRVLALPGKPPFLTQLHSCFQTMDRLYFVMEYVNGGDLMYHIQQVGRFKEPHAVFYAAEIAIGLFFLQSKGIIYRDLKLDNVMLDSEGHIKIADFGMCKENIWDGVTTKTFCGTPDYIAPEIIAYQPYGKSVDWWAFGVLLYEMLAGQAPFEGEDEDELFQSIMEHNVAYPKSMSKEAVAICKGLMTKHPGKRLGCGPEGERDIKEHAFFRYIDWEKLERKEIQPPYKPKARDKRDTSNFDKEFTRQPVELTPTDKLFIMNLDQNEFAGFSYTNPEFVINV
UniProt Q96RR4, sequence (whole entry, looked up): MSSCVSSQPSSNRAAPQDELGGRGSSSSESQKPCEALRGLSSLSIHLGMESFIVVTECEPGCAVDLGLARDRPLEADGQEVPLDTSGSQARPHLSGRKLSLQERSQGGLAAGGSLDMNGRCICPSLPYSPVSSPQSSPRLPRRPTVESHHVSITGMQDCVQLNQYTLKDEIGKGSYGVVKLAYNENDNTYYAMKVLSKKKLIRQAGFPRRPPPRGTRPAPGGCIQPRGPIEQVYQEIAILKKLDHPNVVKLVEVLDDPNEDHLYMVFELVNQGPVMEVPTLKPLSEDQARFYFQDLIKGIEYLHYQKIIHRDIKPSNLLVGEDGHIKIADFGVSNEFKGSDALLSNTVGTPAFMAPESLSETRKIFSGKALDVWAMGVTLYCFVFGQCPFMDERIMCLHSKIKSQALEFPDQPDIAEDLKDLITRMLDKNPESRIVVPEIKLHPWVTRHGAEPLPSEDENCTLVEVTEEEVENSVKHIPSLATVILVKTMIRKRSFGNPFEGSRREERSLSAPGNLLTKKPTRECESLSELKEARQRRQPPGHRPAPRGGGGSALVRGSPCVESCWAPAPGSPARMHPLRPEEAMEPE
UniProt Q14164, sequence (whole entry, looked up): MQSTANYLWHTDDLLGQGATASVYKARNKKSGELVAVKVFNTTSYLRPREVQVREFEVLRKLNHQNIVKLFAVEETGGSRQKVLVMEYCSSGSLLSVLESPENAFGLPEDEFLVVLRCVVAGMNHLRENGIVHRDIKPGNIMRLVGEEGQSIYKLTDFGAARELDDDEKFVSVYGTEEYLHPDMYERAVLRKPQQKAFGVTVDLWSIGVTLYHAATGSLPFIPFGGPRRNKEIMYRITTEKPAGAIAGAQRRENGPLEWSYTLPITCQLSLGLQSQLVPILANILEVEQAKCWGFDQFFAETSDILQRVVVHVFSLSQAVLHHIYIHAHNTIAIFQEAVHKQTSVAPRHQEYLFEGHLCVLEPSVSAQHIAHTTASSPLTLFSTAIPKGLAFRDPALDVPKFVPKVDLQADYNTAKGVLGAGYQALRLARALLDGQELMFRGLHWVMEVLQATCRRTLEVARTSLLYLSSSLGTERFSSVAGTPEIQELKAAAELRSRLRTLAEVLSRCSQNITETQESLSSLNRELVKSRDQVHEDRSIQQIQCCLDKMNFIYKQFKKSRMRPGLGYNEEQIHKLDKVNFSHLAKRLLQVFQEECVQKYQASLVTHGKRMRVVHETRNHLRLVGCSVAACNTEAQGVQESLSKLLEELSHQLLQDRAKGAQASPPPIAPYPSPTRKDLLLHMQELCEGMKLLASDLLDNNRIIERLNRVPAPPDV
UniProt O95747, sequence (whole entry, looked up): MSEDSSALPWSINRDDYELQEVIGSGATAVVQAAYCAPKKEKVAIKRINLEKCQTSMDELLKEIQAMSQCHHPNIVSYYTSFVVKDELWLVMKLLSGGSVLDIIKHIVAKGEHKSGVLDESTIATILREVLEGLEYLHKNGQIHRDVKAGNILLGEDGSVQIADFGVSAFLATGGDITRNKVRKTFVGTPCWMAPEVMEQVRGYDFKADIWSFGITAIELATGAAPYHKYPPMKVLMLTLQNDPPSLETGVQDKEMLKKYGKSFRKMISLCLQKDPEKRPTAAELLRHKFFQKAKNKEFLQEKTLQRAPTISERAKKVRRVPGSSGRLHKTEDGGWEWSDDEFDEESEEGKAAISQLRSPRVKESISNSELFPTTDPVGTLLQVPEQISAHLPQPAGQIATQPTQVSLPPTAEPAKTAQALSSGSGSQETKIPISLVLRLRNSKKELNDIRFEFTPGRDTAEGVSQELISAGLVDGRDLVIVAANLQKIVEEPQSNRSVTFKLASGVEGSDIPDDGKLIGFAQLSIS
UniProt Q99759, sequence (whole entry, looked up): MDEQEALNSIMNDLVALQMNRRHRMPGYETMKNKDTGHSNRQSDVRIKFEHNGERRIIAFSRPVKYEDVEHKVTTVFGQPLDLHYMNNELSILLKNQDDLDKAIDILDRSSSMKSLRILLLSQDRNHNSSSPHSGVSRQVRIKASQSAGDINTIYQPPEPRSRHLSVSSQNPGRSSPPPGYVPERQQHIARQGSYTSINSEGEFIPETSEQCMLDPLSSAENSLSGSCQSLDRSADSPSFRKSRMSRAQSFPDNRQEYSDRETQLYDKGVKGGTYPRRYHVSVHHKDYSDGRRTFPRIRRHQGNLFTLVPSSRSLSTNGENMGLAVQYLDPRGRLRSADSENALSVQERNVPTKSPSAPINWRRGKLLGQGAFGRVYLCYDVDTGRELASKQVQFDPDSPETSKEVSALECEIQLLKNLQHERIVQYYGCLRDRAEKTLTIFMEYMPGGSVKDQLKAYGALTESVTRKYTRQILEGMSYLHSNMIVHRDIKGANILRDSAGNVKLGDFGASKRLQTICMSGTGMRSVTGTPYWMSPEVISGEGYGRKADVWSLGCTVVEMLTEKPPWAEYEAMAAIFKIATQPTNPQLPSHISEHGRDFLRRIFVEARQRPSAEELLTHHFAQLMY
UniProt Q13976, sequence (whole entry, looked up): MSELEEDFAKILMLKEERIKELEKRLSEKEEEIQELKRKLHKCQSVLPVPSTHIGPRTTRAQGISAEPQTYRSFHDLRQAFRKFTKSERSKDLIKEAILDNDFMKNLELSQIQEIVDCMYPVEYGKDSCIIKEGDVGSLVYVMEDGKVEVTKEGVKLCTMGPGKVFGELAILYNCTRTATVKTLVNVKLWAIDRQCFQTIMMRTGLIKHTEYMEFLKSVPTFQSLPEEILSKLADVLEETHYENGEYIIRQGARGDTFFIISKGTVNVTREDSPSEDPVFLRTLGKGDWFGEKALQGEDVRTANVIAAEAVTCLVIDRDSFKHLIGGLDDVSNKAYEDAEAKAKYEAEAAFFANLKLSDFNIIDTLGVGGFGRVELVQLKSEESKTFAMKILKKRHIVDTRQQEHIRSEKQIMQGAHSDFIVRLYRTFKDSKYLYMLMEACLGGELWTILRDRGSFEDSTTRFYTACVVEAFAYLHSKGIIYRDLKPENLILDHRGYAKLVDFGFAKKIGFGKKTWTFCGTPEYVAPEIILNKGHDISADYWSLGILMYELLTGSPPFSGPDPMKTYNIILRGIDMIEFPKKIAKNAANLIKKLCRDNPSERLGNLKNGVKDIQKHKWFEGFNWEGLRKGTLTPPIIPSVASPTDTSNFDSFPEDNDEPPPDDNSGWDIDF
UniProt P35626, sequence (whole entry, looked up): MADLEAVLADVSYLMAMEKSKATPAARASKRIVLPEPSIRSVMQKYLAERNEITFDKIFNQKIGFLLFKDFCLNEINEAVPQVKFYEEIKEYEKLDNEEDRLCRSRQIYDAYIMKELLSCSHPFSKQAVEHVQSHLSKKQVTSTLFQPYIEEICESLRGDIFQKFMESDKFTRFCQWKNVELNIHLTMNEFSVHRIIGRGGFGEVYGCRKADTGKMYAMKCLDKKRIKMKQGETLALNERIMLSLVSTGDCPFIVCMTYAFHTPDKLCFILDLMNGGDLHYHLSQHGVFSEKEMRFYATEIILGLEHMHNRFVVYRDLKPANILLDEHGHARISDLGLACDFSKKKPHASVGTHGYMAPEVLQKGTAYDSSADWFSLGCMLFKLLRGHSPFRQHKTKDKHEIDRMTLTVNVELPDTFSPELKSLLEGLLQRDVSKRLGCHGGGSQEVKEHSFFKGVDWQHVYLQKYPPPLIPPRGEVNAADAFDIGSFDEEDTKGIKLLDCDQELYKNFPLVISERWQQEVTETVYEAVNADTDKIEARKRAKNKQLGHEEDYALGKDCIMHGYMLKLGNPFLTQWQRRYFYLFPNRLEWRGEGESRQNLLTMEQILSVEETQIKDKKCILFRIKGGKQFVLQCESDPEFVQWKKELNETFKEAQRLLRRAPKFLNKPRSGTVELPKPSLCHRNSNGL
UniProt O96017, sequence (whole entry, looked up): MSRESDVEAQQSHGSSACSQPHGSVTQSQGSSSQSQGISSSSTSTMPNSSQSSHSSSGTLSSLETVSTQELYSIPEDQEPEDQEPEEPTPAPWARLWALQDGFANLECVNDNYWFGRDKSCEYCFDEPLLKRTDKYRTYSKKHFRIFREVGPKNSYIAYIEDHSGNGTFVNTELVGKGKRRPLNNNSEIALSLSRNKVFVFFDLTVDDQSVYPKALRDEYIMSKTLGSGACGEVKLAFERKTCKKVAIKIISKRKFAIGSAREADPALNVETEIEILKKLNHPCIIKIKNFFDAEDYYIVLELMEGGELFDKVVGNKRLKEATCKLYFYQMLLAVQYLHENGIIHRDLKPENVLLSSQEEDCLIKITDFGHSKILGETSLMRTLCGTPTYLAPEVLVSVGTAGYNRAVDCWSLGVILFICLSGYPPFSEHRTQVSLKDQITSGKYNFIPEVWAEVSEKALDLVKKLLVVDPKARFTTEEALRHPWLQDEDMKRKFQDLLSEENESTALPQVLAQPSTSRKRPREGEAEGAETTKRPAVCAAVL

Set 1
SMILES: CC(=O)c1ccc(N2CCOCC2)cc1O
Observed: enzyme activity
Action: inhibitor
Tested at: 0.5 µM
Reference: control
TGFBR2 (Homo sapiens, UniProt P37173) — remaining activity: 132%.
The remaining activity was 108% (MAP3K3 (Homo sapiens, UniProt Q99759)).
CAMKK2 (Homo sapiens, UniProt Q96RR4) — remaining activity: 115%.
The remaining activity was 115% (OXSR1 (Homo sapiens, UniProt O95747)).
The remaining activity was 89.1% (GRK3 (Homo sapiens, UniProt P35626)).
IKBKE (Homo sapiens, UniProt Q14164) — remaining activity: 105%.
It gave 104% for remaining activity (CHEK2 (Homo sapiens, UniProt O96017)).
The remaining activity was 84.1% (cGMP-dependent protein kinase 1, isoform beta (PRKG1, Homo sapiens, UniProt Q13976)).
IKBKB (Homo sapiens, UniProt O14920) — remaining activity: 103%.
It gave 96.3% for remaining activity (Protein kinase C beta type, isoform beta-I (PRKCB, Homo sapiens, UniProt P05771)).

Set 2
Target: POU domain, class 6, transcription factor 1, POU and homeodomain (POU6F1, Homo sapiens, UniProt Q14863, residues 311-611)
Technique: protein-binding microarray
Form: hairpin DNA
Medium: in vitro
Tested at: not given
Notes: whole hairpin DNA, median over replicate spots
Reference: not given
Direction: higher = stronger binding
Constant ends, left off below: GAGGCC … GGCCTCACACTCTT
Target sequence (chain): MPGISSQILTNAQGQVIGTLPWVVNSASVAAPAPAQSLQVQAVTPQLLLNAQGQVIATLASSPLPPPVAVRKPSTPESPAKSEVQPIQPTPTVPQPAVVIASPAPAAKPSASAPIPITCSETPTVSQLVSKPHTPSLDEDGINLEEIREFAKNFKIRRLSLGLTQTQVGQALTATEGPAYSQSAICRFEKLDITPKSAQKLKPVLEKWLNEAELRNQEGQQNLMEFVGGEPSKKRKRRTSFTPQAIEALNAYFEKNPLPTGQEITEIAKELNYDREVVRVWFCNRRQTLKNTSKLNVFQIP
The median fluorescence of `ATGATGAGGTGCCTCCTGGCACCTCATCAT` is reported as 441 a.u.
The median fluorescence of `AAAATGAGGTGCCTCCTGGCACCTCATTTT` is reported as 779 a.u.
`ATAATGCGGTGCCTCCTGGCACCGCATTAT (5mC at 13)` gave a median fluorescence of 534 a.u.
`ATACGGAGGTGCCTCCTGGCACCTCCGTAT (5mC at 10)` has a median fluorescence of 337 a.u.
`ATAATTAGGGGCCTCCTGGCCCCTAATTAT (5mC at 27)` has a median fluorescence of 1380 a.u.
`ATAATCGGGTGCCTCCTGGCACCCGATTAT (5mC at 30)` has a median fluorescence of 602 a.u.
With `TTAATGAGGTGCCTCCTGGCACCTCATTAA` the median fluorescence was 2160 a.u.
With `ATCATGAGGTGCCTCCTGGCACCTCATGAT (5mC at 9)` the median fluorescence was 382 a.u.

Mixed results
Under interaction screen, `NOP14 (Homo sapiens, UniProt P78316)` is recorded as “cross-linked” (NOC4L (Homo sapiens, UniProt Q9BVI4); cross-linking MS; hits only).
For `c1ccc(Oc2ccc(Nc3c4c(nc5ccccc35)CCC4)cc2)cc1`, the inhibition was 100% (Leishmania donovani; parasite growth, high-content imaging; MHOM/IN/80/DD8, amastigotes in THP-1 cells; 40 µM).
`WDR18 (Homo sapiens, UniProt Q9BV38)` — result for cross-linked residues: “K432 to K499” (LAS1L (Homo sapiens, UniProt Q9Y4W2); cross-linking MS; cell fractions; together with: DSSO).
`CNC(=O)Nc1ccc2c(c1)C1(CC2)OC(=O)N(CC(=O)N(Cc2ccc(F)cc2)[C@@H](C)C(F)(F)F)C1=O` (single isomer, unassigned) has a remaining binding of 73% (ABL1 (Homo sapiens, UniProt P00519, F317I); KINOMEscan; 1 µM, F317I mutant, phosphorylated; reference: control).
Under cross-linked residues, `NPM1 (Homo sapiens, UniProt P06748)` is recorded as “E282 to E930” (FAM184B (Homo sapiens, UniProt Q9ULE4); cross-linking MS; cell fractions; together with: DHSO).

Some of these lines once more (set 1):
It gave 104% for remaining activity (CHEK2 (Homo sapiens, UniProt O96017)).
The remaining activity was 84.1% (cGMP-dependent protein kinase 1, isoform beta (PRKG1, Homo sapiens, UniProt Q13976)).
